Published values from different studies.
Each line is one published result; not all experiments were run side by side.
Target: Rhodopsin kinase GRK7 (GRK7, Homo sapiens, UniProt Q8WTQ7)

SMILES | assay | setting | how to read | measurement | result
C=CC(=O)N1CCc2ccc(-n3c(=O)ccc4cnc5ccc(-c6cnn(C)c6)cc5c43)cc21 | KINOMEscan | 1 µM | reference: DMSO control | remaining binding | 92%
NC(=O)C[C@H]1CCc2sc3ncnc(O[C@H]4CC[C@H](N5CCOCC5)CC4)c3c21 | enzyme activity, inhibitor | 10 µM |  | inhibition | 1%
COc1c(OCCCN2CCOCC2)ccc2c1N=C(NC(=O)c1cnc(N)nc1)N1CCN=C21 | kinase activity, inhibitor | 1 µM | reference: untreated control | remaining activity | 109%
COc1c(Cl)cccc1Nc1c(-c2ccncc2C#C[C@@]2(C)CCCN2C(=O)/C=C/CN(C)C)[nH]c2c1C(=O)NCC2 | binding, competition with immobilised ligand | 3 µM |  | remaining binding | 93%
COc1cc(Nc2nc(C)cc(-c3cnn4nc(OC)ccc34)n2)cc(C(F)(F)F)c1 | inhibitor | 1 µM | reference: control | remaining activity | 83%
CN1CCN(Cc2ccc(-c3ccc(CO[C@H]4CCC[C@@H]4NC(=O)c4cc(-c5cnn(C)c5)cnc4N)cc3)cc2)CC1 | enzyme activity, inhibitor | 0.1 µM |  | inhibition | 4%
O=C=[N][Ru-4]123([n]4c5ccc(O)cc5c5c6c(c7cc(F)c[n+]1c7c54)C(=O)NC6=O)[S+]1CC[S+]2CC[S+]3CC1 (centres unmarked) | enzyme activity | 100 nM, human enzyme, with: 10 µM ATP | reference: untreated | remaining activity | 46%
CNC(=O)C[C@H](Cc1ccc(C#N)cc1)NC(=O)c1cc(-c2ccc(CN[C@H](C)c3ccc(C)cc3)o2)ccc1Cl | enzyme activity, inhibitor | 1 µM |  | activity vs control | 104%
CN1CC[C@@H](COc2cnc(C#N)cc2-c2ccn3nc(NC(=O)C4CC4)cc3c2)C1 | enzyme activity, inhibitor | 1 µM |  | inhibition | 1%
COc1ccc(NC(=O)Nc2ccc3c(c2)C(=O)N(C(C)CO)CC(C)C(CN(C)Cc2ccc4c(c2)OCO4)O3)cc1 (centres unmarked) | kinase activity, KinaseProfiler | 0.03 µM, species human | reference: control | remaining activity | 92%
O=C(Cc1ccc(OCc2ccccc2)cc1)NC1(C(=O)O)CCN(C(=O)c2ccc(-c3cccc(Cl)c3)cc2)CC1 | enzyme activity, inhibitor | 10 µM |  | activity vs control | 104%
Nc1ncc2c(n1)-c1c([nH]c3ccc(C4=CCOCC4)cc13)CCC2 | binding, competition with immobilised ligand | 1 µM |  | remaining binding | 70%
Cc1cccc(O[C@H]2CCC[C@@H](C(C)CNCc3ccncc3)C2)c1 (relative stereo) | enzyme activity, inhibitor | 10 µM |  | inhibition | -6%
C=CC(=O)N1Cc2nc(-c3cc(-c4cc(Cl)cnc4Cl)c(F)cc3F)n(-c3ccncn3)c2C1 | cell-free assay, inhibitor | 1 µM |  | inhibition | 0.3%

A few entries again:
SMILES | assay | setting | how to read | measurement | result
O=C(Cc1ccc(OCc2ccccc2)cc1)NC1(C(=O)O)CCN(C(=O)c2ccc(-c3cccc(Cl)c3)cc2)CC1 | enzyme activity, inhibitor | 10 µM |  | activity vs control | 104%
Nc1ncc2c(n1)-c1c([nH]c3ccc(C4=CCOCC4)cc13)CCC2 | binding, competition with immobilised ligand | 1 µM |  | remaining binding | 70%
